Experimental data pooled from the literature.
Numbered parts are unrelated; each lists some results of a single study. Substitutions count along the parent as printed.
Sequence of UniProt Q9NR09 (whole entry, looked up): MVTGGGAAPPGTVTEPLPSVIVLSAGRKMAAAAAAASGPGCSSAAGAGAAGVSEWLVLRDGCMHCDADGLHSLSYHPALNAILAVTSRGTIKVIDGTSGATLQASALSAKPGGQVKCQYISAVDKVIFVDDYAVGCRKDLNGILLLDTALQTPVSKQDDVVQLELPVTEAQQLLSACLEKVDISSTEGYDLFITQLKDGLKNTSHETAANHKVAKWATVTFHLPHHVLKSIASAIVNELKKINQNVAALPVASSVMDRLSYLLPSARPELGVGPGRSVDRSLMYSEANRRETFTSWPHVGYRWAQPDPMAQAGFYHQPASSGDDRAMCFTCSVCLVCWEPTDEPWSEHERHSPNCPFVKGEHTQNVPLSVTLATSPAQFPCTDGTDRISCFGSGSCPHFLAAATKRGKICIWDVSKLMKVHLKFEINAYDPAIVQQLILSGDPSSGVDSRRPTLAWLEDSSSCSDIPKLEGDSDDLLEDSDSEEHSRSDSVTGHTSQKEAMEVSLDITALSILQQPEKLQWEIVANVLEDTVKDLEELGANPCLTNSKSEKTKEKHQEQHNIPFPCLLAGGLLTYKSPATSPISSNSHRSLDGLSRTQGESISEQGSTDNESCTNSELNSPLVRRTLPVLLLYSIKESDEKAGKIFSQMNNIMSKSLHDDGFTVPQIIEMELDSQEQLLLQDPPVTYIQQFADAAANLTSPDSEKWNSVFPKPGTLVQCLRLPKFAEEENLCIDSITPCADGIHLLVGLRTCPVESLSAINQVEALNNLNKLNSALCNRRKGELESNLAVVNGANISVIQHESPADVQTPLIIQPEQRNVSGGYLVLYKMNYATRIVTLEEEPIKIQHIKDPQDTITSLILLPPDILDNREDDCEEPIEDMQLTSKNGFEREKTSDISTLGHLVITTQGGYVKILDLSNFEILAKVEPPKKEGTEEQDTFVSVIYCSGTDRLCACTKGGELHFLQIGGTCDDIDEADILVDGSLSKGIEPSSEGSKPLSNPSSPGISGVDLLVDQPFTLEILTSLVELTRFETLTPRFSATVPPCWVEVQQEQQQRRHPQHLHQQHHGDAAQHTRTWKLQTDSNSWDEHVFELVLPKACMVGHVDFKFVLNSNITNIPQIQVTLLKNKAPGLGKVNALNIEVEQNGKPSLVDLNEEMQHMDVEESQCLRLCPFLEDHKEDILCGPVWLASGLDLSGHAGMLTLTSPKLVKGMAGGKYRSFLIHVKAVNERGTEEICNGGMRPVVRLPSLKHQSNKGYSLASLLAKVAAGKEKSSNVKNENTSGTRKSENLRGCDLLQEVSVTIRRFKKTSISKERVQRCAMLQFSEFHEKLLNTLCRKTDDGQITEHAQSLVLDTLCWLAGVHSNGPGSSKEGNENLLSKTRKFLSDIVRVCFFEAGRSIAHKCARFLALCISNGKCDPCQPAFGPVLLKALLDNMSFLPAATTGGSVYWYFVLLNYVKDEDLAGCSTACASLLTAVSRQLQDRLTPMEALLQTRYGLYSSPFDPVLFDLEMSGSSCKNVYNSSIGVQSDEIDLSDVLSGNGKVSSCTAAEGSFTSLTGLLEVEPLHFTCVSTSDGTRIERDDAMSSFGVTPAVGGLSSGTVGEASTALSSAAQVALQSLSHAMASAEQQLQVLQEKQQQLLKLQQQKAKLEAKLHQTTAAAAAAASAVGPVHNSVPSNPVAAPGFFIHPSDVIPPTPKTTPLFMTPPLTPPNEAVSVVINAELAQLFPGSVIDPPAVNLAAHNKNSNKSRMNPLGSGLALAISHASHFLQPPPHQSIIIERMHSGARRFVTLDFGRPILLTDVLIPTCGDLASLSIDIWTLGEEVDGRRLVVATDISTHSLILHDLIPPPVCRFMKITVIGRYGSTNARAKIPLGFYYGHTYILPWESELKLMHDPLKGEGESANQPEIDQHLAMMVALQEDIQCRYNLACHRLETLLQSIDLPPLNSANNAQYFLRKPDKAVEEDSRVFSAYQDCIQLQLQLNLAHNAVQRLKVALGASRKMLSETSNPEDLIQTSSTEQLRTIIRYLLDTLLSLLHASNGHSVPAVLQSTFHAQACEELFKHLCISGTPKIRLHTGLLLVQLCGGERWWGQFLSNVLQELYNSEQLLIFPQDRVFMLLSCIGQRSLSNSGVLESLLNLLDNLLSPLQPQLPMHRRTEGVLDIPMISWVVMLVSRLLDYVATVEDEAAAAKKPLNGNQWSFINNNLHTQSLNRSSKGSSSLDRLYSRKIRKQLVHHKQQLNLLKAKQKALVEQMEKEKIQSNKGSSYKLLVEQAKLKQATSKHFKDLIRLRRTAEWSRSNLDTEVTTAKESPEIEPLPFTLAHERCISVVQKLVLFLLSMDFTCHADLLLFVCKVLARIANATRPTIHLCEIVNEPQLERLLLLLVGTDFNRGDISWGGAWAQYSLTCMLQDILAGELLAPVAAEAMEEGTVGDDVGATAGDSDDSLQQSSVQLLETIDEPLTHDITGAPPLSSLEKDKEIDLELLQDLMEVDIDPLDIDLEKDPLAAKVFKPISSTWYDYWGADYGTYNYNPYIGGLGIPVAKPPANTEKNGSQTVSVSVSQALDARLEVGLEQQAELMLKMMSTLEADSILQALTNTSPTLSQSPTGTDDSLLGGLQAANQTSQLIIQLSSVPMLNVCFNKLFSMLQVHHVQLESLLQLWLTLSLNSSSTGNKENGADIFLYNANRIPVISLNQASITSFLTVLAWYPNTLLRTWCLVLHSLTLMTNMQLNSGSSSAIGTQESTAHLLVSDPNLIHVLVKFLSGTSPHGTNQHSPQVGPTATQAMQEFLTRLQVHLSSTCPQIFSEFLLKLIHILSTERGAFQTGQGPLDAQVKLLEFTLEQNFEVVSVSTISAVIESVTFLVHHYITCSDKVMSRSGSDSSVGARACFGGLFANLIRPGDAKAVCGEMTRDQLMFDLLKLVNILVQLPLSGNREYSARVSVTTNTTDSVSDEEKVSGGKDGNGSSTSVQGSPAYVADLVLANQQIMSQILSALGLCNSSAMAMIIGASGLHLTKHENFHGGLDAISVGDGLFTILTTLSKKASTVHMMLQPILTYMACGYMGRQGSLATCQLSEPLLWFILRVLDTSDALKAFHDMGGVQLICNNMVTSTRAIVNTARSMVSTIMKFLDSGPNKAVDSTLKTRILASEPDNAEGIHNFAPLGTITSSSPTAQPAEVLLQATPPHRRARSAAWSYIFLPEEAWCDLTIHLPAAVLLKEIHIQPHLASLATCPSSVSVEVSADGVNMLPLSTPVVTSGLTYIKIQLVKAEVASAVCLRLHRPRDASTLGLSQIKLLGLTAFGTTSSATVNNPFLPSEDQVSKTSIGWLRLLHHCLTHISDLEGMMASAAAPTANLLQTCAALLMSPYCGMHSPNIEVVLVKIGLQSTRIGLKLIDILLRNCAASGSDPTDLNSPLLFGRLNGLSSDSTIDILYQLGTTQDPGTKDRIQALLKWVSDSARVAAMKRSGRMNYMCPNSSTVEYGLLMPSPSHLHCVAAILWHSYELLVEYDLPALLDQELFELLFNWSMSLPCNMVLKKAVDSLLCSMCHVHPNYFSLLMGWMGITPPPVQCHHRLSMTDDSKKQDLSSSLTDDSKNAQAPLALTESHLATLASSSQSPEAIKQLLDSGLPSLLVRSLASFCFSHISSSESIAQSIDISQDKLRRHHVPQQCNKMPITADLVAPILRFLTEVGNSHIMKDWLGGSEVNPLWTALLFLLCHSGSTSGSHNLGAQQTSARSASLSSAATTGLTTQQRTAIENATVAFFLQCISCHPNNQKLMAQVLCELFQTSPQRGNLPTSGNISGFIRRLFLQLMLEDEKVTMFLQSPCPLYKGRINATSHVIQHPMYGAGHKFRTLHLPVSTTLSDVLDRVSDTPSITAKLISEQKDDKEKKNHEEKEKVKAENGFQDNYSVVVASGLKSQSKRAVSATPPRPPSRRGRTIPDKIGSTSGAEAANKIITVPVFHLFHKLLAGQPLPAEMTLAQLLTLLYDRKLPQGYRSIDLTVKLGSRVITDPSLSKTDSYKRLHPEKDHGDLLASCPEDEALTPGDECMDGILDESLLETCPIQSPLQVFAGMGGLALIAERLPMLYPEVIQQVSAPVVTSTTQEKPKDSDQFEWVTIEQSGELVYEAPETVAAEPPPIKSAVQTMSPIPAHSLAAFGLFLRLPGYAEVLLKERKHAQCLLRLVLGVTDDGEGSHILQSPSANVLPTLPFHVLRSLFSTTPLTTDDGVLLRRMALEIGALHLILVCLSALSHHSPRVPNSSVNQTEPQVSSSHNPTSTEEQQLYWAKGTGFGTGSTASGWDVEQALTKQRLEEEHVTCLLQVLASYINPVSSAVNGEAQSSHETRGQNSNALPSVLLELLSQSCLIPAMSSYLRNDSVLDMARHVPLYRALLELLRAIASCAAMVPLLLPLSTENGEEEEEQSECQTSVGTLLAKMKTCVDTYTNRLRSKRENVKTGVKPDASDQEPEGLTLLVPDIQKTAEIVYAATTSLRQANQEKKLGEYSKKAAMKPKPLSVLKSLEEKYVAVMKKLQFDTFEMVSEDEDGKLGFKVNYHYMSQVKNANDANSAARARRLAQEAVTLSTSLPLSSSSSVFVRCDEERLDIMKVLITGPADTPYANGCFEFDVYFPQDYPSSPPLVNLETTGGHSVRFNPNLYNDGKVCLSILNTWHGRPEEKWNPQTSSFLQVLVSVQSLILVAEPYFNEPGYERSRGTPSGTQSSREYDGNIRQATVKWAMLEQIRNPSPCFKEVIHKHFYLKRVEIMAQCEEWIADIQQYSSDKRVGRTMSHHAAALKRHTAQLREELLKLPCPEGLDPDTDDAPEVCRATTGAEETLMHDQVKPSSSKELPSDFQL
Sequence of UniProt P61081 (whole entry, looked up): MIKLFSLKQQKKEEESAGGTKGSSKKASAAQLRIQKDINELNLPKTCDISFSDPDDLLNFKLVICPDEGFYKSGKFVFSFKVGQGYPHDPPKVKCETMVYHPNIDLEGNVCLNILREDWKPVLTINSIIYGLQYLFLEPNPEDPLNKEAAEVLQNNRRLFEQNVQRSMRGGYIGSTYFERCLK

Set 1
Target: ABI1, truncated, D143A, DHFR fusion (Arabidopsis thaliana)
Technique: DHFR PCA, deep sequencing
Medium: yeast
Notes: methotrexate growth selection, single substitutions
Added: (+)-ABA 0.39 µM
Relative to: wild-type fitted maximum
Reading: higher = stronger binding
Starting sequence: PYL1, truncated, DHFR fusion (Arabidopsis thaliana); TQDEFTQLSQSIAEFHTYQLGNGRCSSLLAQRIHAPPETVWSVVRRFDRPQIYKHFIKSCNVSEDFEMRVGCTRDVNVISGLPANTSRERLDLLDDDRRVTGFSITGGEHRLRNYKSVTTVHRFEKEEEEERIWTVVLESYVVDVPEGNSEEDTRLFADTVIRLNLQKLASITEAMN; partner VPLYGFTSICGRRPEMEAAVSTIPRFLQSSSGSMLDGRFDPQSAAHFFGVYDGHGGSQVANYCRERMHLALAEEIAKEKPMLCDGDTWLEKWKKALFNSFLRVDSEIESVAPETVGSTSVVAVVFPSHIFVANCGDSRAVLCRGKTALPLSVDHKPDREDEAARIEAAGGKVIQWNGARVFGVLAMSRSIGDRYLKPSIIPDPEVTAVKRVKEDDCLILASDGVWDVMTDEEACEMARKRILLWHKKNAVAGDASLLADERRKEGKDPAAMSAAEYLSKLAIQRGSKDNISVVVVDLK
Variant | relative binding score
R99H | 47.8%
G102Q | -8.68%
E128R | 21.7%
E152M | 0.724%
R155N | -17.7%
P83V | 0.0338%
N77R | 64.4%
A35N | -8.57%
T135H | -0.478%
T1V | 56.1%
Y18G | -4.24%

Set 2
Sequence: B1 (MKRN1 RING domain)
Technique: yeast two-hybrid
Medium: yeast
Notes: mostly zero background
Relative to: not given
Reading: higher = stronger interaction
B1: MKRN1 RING domain (UniProt Q9UHC7); chain FAVQRSKDMVCGICMEVVYEKANPSERRFGILSNCNHTYCLKCIRKWRSAKQFESKIIKSCPECRITSNFVIPSE
target | lacZ reporter activity
UBE2E3 UBC core domain (UniProt Q969T4) | 0
UBE2R2 UBC core domain (UniProt Q712K3) | 0
UBE2L3 UBC core domain (UniProt P68036) | 0
UBE2D4 UBC core domain (UniProt Q9Y2X8) | 0
UBE2Q1 UBC core domain (UniProt Q7Z7E8) | 0
UBE2M UBC core domain (UniProt P61081) | 0
UBE2Z UBC core domain (UniProt Q9H832) | 0
BIRC6 UBC core domain (UniProt Q9NR09) | 0
UBE2D2 UBC core domain (UniProt P62837) | 0
UBE2J2 UBC core domain (UniProt Q8N2K1) | 0

Set 3
Target: CCNA2, cyclin fold, Cln2 fusion (human)
Technique: yeast growth competition, sequencing
Medium: yeast
Notes: strong parent motif
Relative to: not given
Reading: higher = stronger binding
Starting sequence: E2F1 docking peptide (human); PPVKRRLDFETDH
Variant | normalised enrichment score
PPVKRRLDFMTDH [E10M] | 6.3
PPNKRRLDFETDH [V3N] | 2.05
PPVKRRLDFERDH [T11R] | 6.02
PPVKRRTDFETDH [L7T] | 0.248
PPVKRRVDFETDH [L7V] | 3.12
PPVYRRLDFETDH [K4Y] | 5.19
PPVKRRLDFEWDH [T11W] | 6.08
PPVKRRDDFETDH [L7D] | -0.0576
PPVKRRLDFEEDH [T11E] | 5.57
PPVKRRIDFETDH [L7I] | 5.33
PPVKRRQDFETDH [L7Q] | 0.255
PFVKRRLDFETDH [P2F] | 6.1
PMVKRRLDFETDH [P2M] | 5.97
PPVTRRLDFETDH [K4T] | 4.71
PPVKRRYDFETDH [L7Y] | 0.501
PPVKPRLDFETDH [R5P] | -0.356
PGVKRRLDFETDH [P2G] | 6.37
PCVKRRLDFETDH [P2C] | 6.2

Set 4
Target: RING finger protein unkempt homolog, zinc fingers 1-6, GST-SBP tag (UNK, Homo sapiens, UniProt Q9C0B0, residues 30-357)
Technique: RNA Bind-n-Seq
Form: RNA
Medium: in vitro
Concentration: not given
Notes: RNA with constant flanks, ends assumed
Relative to: input RNA pool
Reading: higher = stronger binding
Residues (chain): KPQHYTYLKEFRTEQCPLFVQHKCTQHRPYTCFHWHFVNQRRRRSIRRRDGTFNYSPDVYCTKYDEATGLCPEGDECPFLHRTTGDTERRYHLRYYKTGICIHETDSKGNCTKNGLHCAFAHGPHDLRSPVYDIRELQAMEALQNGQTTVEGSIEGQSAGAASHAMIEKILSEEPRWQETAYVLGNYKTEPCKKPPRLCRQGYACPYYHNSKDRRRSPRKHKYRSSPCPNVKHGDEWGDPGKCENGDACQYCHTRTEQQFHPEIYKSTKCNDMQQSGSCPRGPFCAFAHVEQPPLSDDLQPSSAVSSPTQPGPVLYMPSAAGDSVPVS
Sequence | bound/input enrichment [ratio]
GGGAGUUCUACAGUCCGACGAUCAAGAUUUUAGAAGAAUUUAGGAAAACACAACAGACAUCCCCUGACAAGGUGGAUUAUGAAUACCGUGAACUACUCUUAUAUCAGAAUCAAGUUCUUCGGGAAGCAGGUCUCUAUAGAGAACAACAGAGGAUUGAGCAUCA | 2.36
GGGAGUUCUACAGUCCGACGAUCCCUGCCAACGGGGACUUCACCUUUGUGUCUUCGGCGGACGCGGAAGAUCUCAGCGGUUCUACCGCAGCUCCAGAUGUCAAAUUAAACCUCGGUGUAAGCGGAGAUUUCAUCAAAGAAUCUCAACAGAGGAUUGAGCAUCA | 0.0266
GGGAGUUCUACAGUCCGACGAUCGCUAGUCAGUCUGGGGCAACAUUCUUUAGCAUCUCUGCUUCAUCCUUAACUUCUAAAUGGGCCGGUGAGGGGGAGAAAAUGGUCCGUGCAUUGUUUGCUGUUGCAAGGUGUCAGCAACCACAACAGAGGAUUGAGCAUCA | 0.663
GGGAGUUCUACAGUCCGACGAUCGGGACCCCGUGUCAUCGCCCAGGCCGAGCACGGAAAUCUACUUUCUUCAAUGUGUUAACCAACCGUCAGGCUUCAGCAGAAAACUUCCCGUUCUGCACUAUUGAUCCUAAUGAGAGCAGACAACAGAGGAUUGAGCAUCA | 0.2
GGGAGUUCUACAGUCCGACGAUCUUUUUUUUUUUUUGGAUACAUCUUAACAUAUAAAAAUUAAGUUUUUGCCAUUCAACACCGCCGUAUCAUAUGGCCUGGAUAUAUUUGAAUGUGUAUGAAGUAAAGUUGCUUGAGAACAGGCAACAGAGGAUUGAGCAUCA | 1.4
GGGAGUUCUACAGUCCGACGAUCCGGAGGCGCUACCCUCAGAUCUAUGCCAGCAGCCACAAGCUGCAGCUGGAUGUCACCUCAACCGUGCUCAGCGCCCACGACUUCUACCAUGCCAUGCAGAACAUCGUGCCUGCUUCCCAACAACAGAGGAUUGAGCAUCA | 0.0474
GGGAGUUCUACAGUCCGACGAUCUAUGAUCAAGUUCUCGUGGAGUCAGACAAUGAGAACCGAAUGGAGGAAAGCAAGGCUCUCUUCCGAACAAUUAUCACAUACCCCUGGUUCCAGAACUCCUCGGUUAUUCUGUUCUUAAACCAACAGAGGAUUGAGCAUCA | 0.23
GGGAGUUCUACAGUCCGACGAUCCUCCCCUACGCGCUACACAAGUGGAGCUCCUUUUCCUCCACCUACCUUCCCGAGAACAUUUCCGUGGACAAACCAAAUGACCAAUCUUCAAGAUGGUCUUCAGAGAGCAACUAUCCUCCCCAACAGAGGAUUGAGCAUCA | 0.374

A few entries again (set 2):
target | lacZ reporter activity
UBE2L3 UBC core domain (UniProt P68036) | 0
UBE2E3 UBC core domain (UniProt Q969T4) | 0
UBE2D4 UBC core domain (UniProt Q9Y2X8) | 0
